Assay results gathered from unrelated publications.
A part holds a random share of what one study measured. Changes are numbered by the printed parent chain.

Sample 1 — target: CCNB1, cyclin fold, Cln2 fusion (human); method: yeast growth competition, sequencing; matrix: yeast; notes: strong parent motif; relative to: not given; direction: higher = stronger binding; starting sequence: viral docking peptide; YKVKRRLVFGADD
Substitution	normalised enrichment score
V3S	0.465
G10K	2.7
G10T	3.66
K2W	2.26
F9I	0.797
F9E	0.485
R6D	0.259
R5W	0.514
G10D	5.53
V8H	3.29
D12C	2.67
K4H	2.63
V3Y	0.885

Sample 2 — target: tungstate, free oxyanion; method: microfluidic competitive inhibition; matrix: in vitro, cell-free expressed; concentration: not given; direction: lower = stronger binding
Notes: derived from inhibition constants, unchanged parent 2230 nM
Starting sequence: PafA, mature enzyme, eGFP fusion (Elizabethkingia meningoseptica, UniProt Q9KJX5); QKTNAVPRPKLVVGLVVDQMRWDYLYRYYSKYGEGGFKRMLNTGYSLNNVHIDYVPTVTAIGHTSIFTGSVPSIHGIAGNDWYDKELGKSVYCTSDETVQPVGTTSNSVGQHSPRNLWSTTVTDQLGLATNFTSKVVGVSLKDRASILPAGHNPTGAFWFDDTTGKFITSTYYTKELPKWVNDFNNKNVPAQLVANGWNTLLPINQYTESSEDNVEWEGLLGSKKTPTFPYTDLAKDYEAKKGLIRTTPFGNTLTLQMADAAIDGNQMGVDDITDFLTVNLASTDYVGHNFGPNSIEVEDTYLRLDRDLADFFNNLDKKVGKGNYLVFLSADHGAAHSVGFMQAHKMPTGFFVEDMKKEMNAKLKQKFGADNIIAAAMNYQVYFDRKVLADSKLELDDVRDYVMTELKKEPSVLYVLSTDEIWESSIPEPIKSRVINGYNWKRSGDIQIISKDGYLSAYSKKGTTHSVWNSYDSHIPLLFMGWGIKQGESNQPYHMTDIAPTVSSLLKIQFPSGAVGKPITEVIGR
Substitution	oxyanion analog dissociation constant
D306G	940 nM
V194G	1600 nM
R246V	7070 nM
K225G	1990 nM
P9V	2020 nM
P411V	2590 nM
S330V	3150 nM

Sample 3 — effect on: binding; method: phage display NGS; form: peptide; concentration: concentration not given; notes: panning round 2; relative to: input library
Target: UDP-N-acetylglucosamine--peptide N-acetylglucosaminyltransferase 110 kDa subunit (OGT, Homo sapiens, UniProt O15294)
Target sequence (O15294 1-1046): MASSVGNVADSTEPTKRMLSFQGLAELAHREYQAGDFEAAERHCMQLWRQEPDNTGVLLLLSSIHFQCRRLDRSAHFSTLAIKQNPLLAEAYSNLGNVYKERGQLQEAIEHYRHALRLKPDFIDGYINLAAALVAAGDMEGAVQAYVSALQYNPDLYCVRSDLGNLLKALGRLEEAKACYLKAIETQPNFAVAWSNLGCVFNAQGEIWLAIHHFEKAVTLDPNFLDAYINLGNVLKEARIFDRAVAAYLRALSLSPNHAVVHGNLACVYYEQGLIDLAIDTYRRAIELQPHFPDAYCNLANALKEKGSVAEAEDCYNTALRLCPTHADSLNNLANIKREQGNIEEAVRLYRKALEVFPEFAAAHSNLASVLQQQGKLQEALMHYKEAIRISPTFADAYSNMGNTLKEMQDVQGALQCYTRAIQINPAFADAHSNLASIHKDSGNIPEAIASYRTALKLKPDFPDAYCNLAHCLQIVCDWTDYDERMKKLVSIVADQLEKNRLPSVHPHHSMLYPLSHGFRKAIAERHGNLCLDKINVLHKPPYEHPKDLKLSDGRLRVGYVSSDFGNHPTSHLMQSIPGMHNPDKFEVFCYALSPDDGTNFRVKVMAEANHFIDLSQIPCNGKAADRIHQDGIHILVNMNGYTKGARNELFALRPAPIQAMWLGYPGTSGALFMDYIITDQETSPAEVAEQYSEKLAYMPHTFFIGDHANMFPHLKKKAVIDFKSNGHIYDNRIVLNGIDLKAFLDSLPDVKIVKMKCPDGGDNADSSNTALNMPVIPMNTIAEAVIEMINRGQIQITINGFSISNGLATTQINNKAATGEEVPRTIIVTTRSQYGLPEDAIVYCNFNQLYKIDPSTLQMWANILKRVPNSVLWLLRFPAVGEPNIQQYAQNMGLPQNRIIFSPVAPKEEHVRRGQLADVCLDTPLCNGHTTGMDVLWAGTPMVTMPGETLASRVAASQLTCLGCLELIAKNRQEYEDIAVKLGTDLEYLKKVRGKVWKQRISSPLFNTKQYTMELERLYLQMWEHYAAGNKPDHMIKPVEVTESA
Molecule	enrichment fold change
TTHYLPVYQIELKNA	10
DGQFKPVYMIDYGV	7.82
ESHQYSFKPMYQIVI	23
HQRMDTSNDWKHHH	5.78
HYFPTYMKHHVNFTD	4.23
STSYVPIYQIDYAHM	8.96
QPIDWLHVHRNYHH	6.19
EEVPSQYAPYYEITY	3.27

Sample 4 — method: protein-binding microarray; form: double-stranded DNA, one strand shown; matrix: in vitro; concentration: 250 nM; notes: 60-bp whole probe; with: salmon DNA 0.4 mg/ml; relative to: random background probes; direction: higher = stronger binding; shared flanks, not repeated: GCCTAGCAC … GTCTTGATTCGCTTGACGCTGCTG
Target: Interferon regulatory factor 5, full length, phosphomimetic (IRF5, Homo sapiens, UniProt Q13568-2, residues 1-514, K96S/S451D/S453D/S456D/S462D)
Oligonucleotide	log fluorescence [z-score]
GACGGTTTCGACGCTGGGGACGTGCTA	3.87
GACCGACTGGACACTGGGGACGTGCTA	-0.414
GACGATTCCAGTATCGAGACGTGCTAG	2.04
TCATCTTGTTCTCTCTGACTGTGCTAG	0.413
GACGGTTCCGGTTGCGGGACGTGCTAG	0.825
TCATGTCTGGGCTTTTTCACTGTGCTA	0.148
CTATGTCTGTTTTTGCTTTCGTGCTAG	2.62
GTGTTTGTCCCTATTTAAGAGTGCTAG	0.375

For quick reference, copied from above (sample 3):
Molecule	enrichment fold change
HQRMDTSNDWKHHH	5.78
HYFPTYMKHHVNFTD	4.23
STSYVPIYQIDYAHM	8.96
QPIDWLHVHRNYHH	6.19
